{"data": "Measured values collected from several papers", "note": "Numbered parts are unrelated; each lists some results of a single study. Substitutions count along the parent as printed."}
{"data": "Block 1", "target": "Ras GTPase-activating protein-binding protein 1, C-terminal RGG region (G3BP1, Homo sapiens, UniProt Q13283)", "technique": "RNA Bind-n-Seq", "molecule type": "RNA", "matrix": "in vitro", "concentration": "1 µM", "setting": "whole 134-nt RNA, ends assumed", "with": "150 mM KCl", "relative to": "input library", "reading": "higher = stronger binding", "sequence of UniProt Q13283 (whole entry, looked up)": "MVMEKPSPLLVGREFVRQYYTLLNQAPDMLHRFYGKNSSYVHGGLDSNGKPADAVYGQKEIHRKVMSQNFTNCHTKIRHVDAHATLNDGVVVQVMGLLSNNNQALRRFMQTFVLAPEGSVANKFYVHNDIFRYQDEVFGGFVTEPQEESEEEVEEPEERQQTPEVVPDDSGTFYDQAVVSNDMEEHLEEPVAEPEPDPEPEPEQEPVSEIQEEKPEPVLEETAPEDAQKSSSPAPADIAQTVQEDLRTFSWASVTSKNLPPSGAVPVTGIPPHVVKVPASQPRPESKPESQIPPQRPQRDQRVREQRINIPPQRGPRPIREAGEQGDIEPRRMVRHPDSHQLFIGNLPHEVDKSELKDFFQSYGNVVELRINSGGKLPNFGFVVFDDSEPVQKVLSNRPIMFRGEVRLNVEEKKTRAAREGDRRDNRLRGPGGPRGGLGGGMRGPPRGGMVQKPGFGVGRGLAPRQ"}
{"Strand": "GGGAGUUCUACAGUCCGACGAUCUGGCCCUGGUGGCAUGCGGGGAGGAAGAGGUGGCCUCAUGGAUCGUGGUGGUCCCGGUGGAAUAUUCAGAGGUGGCCGUGGUGGAGACAGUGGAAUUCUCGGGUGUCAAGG", "log2 enrichment": 1.46}
{"Strand": "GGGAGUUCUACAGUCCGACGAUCUUUUCUGUUUGAAACAGUUUUAUACUUUCUGAUAUAGUACUUGAAAUUCUUACCAGAAAAUUACUUUGGAGUUUUGAAGCCUUUAUUAAUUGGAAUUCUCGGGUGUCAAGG", "log2 enrichment": -1.07}
{"Strand": "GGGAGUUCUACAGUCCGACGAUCACCAUGCAGGUGGGCAUCUUUGCGAAGUGGGGCAAGGGGGGGAUAGGGAGGGGGGUAACACUUUGGGAACAGGUGGUCCCAGGUCGUUUCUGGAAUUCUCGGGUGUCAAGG", "log2 enrichment": -0.932}
{"Strand": "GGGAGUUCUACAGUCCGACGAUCACAGAGGGUUUGGUGGACGUUAUUCUCUAUCAUCAACCCGAUGACAAAAAGAAGAAUCGGGGGUUCUGCUUCCUUGAAUAUGAGGAUCACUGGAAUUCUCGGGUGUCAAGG", "log2 enrichment": -1.54}
{"Strand": "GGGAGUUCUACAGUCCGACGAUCUGCAUUUCCUGAGCUGAAGAAGGACCCAGACAUGGUGAAGGACAUCAUUAAUGAAGAAGAGGUGCAGUUUCUCAAGACUCUCAGCAGAGGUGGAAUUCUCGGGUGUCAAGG", "log2 enrichment": -1.37}
{"Strand": "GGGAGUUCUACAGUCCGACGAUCUCCUGUGCUACACAUCGUAUGUACCGAAUCGGGGUUUUUGGGGUUUUUUUGGGGUGGGGAAAGUAUUAUGUUACGCCGUUCGGAUCUGCAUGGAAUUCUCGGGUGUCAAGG", "log2 enrichment": 1.26}
{"Strand": "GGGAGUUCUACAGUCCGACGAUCUGGCUGGCUGUGGCCUCACAGCUGAGGACUGCAAGGACCUUGCCUUUGGGCUGAGAGCCAACCAGACCCUGACCGAGCUGGACCUGAGCUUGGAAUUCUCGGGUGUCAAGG", "log2 enrichment": -2.19}
{"Strand": "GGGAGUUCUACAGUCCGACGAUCUGGCCCUGGUGACAUGCGGGGAGGAAGAGGUGGCCUCAUGGAUCGUGGUGGUCCCGGUGGAAUGUUCAGAGGUGGCCGUGGUGGAGACAGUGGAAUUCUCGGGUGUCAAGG", "log2 enrichment": 1.97}
{"Strand": "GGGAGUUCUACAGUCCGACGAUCUAACUUUAGAGGAGGAUCUGAUGGAUAUGGCAGUGGACGUGGAUUAGGGGAUGGCUAUAAUGGGUAUGGAGGAGGACCUGGAGGUGGCAAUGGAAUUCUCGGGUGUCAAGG", "log2 enrichment": -1.04}
{"Strand": "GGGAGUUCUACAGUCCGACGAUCAAGUCCUGUGCUACACAUCGUAUGUACCGAAUCGGCCCCGGGCCCCGGGGCCCCGGAAAGUAUUAUGUUACGCCGUUCGGAUCUGCACUUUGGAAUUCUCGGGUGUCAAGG", "log2 enrichment": -1.82}
{"data": "Block 2", "target": "RNA binding protein fox-1 homolog 2, RRM domain, GST-SBP tag (RBFOX2, Homo sapiens, UniProt O43251-10, residues 100-194)", "technique": "RNA Bind-n-Seq", "molecule type": "RNA", "matrix": "in vitro", "concentration": "365 nM", "setting": "natural RNA segment, single round, ends assumed", "relative to": "no-protein control", "reading": "higher = stronger binding", "Construct (chain)": "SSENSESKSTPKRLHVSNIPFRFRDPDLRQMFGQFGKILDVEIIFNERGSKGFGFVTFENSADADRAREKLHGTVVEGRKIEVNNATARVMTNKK"}
{"Strand": "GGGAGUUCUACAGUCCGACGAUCCGGUCAGGGAUAUCAUUGGUGAAGUGAUUUCAAAAAGUAUUCAAAAUUUGAUAUGCUGUUUAGUCACUACAGUGCCCUCAAAGGGCAGAAGUUGCAGCCUUUUUUAUAUUUGGAAUUCUCGGGUGCCAA", "RBNS enrichment (R)": 0.406}
{"Strand": "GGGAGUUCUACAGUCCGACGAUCUCUUAUUUUUGUGGGGUUUUUUUCUCUCUUUUUUUUUAAAUGACUGAAAUUCACUGAAGAAAAAUAUGUGAAGGACCUUCACUCUGAGAUGUUAUAUUUUUUUUUAAAAAUGGAAUUCUCGGGUGCCAA", "RBNS enrichment (R)": 0.421}
{"Strand": "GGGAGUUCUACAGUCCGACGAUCUCUGGGUGGUCUGAAUAUUAAAGCUCUUCAUUUCUGGAGAUGGGGCAGCAGGUGGCUCUUCUGCUGGGGCUGACUUGUCCAGAAGGGGACAAAGUGCAAUACAGAGCCUUUGGAAUUCUCGGGUGCCAA", "RBNS enrichment (R)": 0.559}
{"Strand": "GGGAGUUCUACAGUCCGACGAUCGUGCCCCAAGUACAGAUGCCAUUACUUCUGCUUUCGUAUCUCCUCAGGCAAAAGUGGAGGGUGCCUUAUGGGCCCUCCUCAUAGGUUGUCUCUGCAUACACGAACCUAACUGGAAUUCUCGGGUGCCAA", "RBNS enrichment (R)": 0.358}
{"Strand": "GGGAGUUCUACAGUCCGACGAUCAUGCCCUGUAAACACUCUCUCAGCAGAACAAGGACAAAGUGCCGUGUCUGAGAGAGAGUGCCACACCUUGUAGGGACUGGCAGGAAACAGGUCAGGGCCUUCCCCAGAGCUGGAAUUCUCGGGUGCCAA", "RBNS enrichment (R)": 0.293}
{"Strand": "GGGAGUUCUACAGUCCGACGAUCCCUGCCUCCCCCAGGGCAGGUUGGAGCCCUCAGCCCUGGCUUCUGCUCUCAGCCAGCACCACUGCCCGCUGAUCUCCGUGAUGAUUAACCUGCUGCUUCCUUACACAAGGUGGAAUUCUCGGGUGCCAA", "RBNS enrichment (R)": 0.321}
{"Strand": "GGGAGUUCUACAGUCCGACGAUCCAGAUAUAUAUUAAAAACAAAUAAUCGAGGUACCAGAGCUGCGUCUGUGGCACCAGCUAGCUGCAGGUGCAGGGGAUGGCGGGAGUGAGGCUGUGUCUGCGGAUGGCUGGUGGAAUUCUCGGGUGCCAA", "RBNS enrichment (R)": 0.809}
{"Strand": "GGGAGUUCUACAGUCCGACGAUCCAGGGCAUUCCAUCCCUAGUUCUCACAGUGAACACCUGCCUCCUCUCUCUCCUGAGAGCAAGCAUUUGUGUCAGCCACAGGAAGCAGAAGUAUUAAGGGAGGAAGUGCUGUGGAAUUCUCGGGUGCCAA", "RBNS enrichment (R)": 0.338}
{"Strand": "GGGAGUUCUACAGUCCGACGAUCUUUUAGUACUGAACUCCUGUGCCCUUCUUUUUUAAAAAGGUCUUCCCUCAUUUUGUAUAUUUAGCCAGAUACAGAAAGCUCACAUCCUGAAGGAAACAUGACCAUUCUGAUGGAAUUCUCGGGUGCCAA", "RBNS enrichment (R)": 0.532}
{"Strand": "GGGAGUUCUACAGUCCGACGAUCAGCCUCAAGGACACACUUUCCAGAUCGCCUCUAGAAGGGAGAGGAGAUCCCGUCACUAUCUGGCAAAUGCACCAUGCGGCCAGGCUGCAGGGGCUCUGGGCAUGCUGUGCUGGAAUUCUCGGGUGCCAA", "RBNS enrichment (R)": 1.47}
{"Strand": "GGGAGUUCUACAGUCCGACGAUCCCCCAUCAAUCCCUAAUUUAUUGAGAGUUUUUAGCAUGAAGGGUUGUUGAAUUUUGUCAAAGGCUUUUUCUGCAUCUAUUGAGAUAAUCAUGUGUUUUUUGUCUUUGGCUUGGAAUUCUCGGGUGCCAA", "RBNS enrichment (R)": 5.63}
{"Strand": "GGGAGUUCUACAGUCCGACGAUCUCUAGAGGAAUUUGGUCUAUGCUUGUCCACCAGGCUACCAGCUAGGGCUCUAGAGAAAGCAGCUAGUGGUUUCUUUGUCUUGGAACAGGCAGGGUAAGGGUGGGCACAUUUGGAAUUCUCGGGUGCCAA", "RBNS enrichment (R)": 0.529}
{"data": "Block 3", "target": "CCND3, cyclin fold, Cln2 fusion (human)", "technique": "yeast growth competition, sequencing", "matrix": "yeast", "setting": "weak parent motif", "relative to": "not given", "reading": "higher = stronger binding", "parent": "BRCA2 docking peptide (human); PSIKRNLLNEFDR"}
{"Substitution": "PSIKRNLLNEFDS [R13S]", "normalised enrichment score": 0.166}
{"Substitution": "PSIKRNLRNEFDR [L8R]", "normalised enrichment score": 0.0186}
{"Substitution": "PSIKRNLLWEFDR [N9W]", "normalised enrichment score": 0.129}
{"Substitution": "PSYKRNLLNEFDR [I3Y]", "normalised enrichment score": 0.142}
{"Substitution": "PSIKRNLLNEFDN [R13N]", "normalised enrichment score": 0.0898}
{"Substitution": "PSIKHNLLNEFDR [R5H]", "normalised enrichment score": 0.00909}
{"data": "Mixed results"}
{"Molecule": "PhoQ, residues 284 288 289 292 302 303 TAVSDG", "target": "PhoP, residues 12 14 15 18 19 TTLRV (Escherichia coli, UniProt P23836)", "test": "Sort-seq, refers to: YFP reporter", "system": "E. coli", "setting": "PhoQ-PhoP variant library, with: 10 µM Mg2+", "how to read": "relative to: high Mg2+ state, higher = stronger signaling", "endpoint": "fold induction", "result": 2.22}
